Assay results of several laboratories.
Compare with care: the assays were run in different laboratories. ± gives the spread as reported.

COc1cc2ncnc(Nc3ccc(Oc4ccccc4)c(C)c3C)c2cc1OC
viability (LoVo (KRAS G13D); resazurin; 3 µM, 72 h, together with: trametinib 0 nM): 72.7%

COc1c(O[C@@H]2O[C@H](CO)[C@@H](O)[C@H](O)[C@H]2O)c(C)cc2c1C(=O)c1c(O)cccc1C2=O
cell viability (HepaRG co-cultured with HK-2; MTT; 66.67 µM, 24 h; relative to: untreated control): 64.8 ± 5.18%

O=C(/C=C/c1ccc(CN(CCO)CCc2c[nH]c3ccccc23)cc1)NO
viability (OCI-Ly1; 0.5 µM, 120 h): 2.37%

Cc1nc2ccc(OCc3ccc(C(F)(F)F)cc3)cc2[nH]1
viability (sample A patient iPSC-derived NPCs; MTS; 10 µM, 24 h; relative to: vehicle): 174 ± 11.3%

COc1cc2ncnc(Nc3ccc(Oc4ccccc4)cc3C)c2cc1OC
viability (COLO 205 (BRAF V600E); resazurin; 1 µM, 72 h, together with: trametinib 0 nM): 85.7%

Cc1cccc(-c2[nH]c(CNc3ccccc3F)nc2-c2ccc3ncnn3c2)n1
viability (MM1.S; XTT; 1.8 µM; relative to: untreated): 23%

O=C(O)c1cc(O)c2c(c1)C(=O)c1cccc(O)c1C2=O
cell viability (HepaRG co-cultured with HK-2; MTT; 16.67 µM, 48 h; relative to: untreated control): 106 ± 19.4%

Nc1ncnc2c1ncn2[C@@H]1O[C@H](CSCC[C@H](N)C(=O)O)[C@@H](O)[C@H]1O
viability (OCI-Ly1; 1 µM, 120 h): 156%

FC(F)(F)Oc1ccc(CNc2ccc3nc(COCc4ccccc4)[nH]c3c2)cc1
viability (sample A patient iPSC-derived NPCs; MTS; 10 µM, 24 h; relative to: vehicle): 157 ± 10.5%

O=C(/C=C/C=C/C=C/C1CCCCC1)NC1=C[C@@](O)(/C=C/C=C/C=C/C(=O)NC2=C(O)CCC2=O)[C@@H]2O[C@@H]2C1=O
GI50 (Lu-65; cell growth, CellTiter-Glo; 78 h): 12.5 µM

Cc1nc2c(Cl)cccn2c1NC(=O)c1ccc(-c2ccc(N(C)C)cc2)o1
metabolic activity (COS-7; WST-8; 10 µM, 24 h, 0.1% DMSO, unit not given; relative to: vehicle control): 0.94 ± 0.06

Cn1cc(/C=C/C(=O)c2cccc(F)c2)cc1/C=C/C(=O)NO
viability (OCI-Ly1; 0.5 µM, 120 h): 149%

Cc1nc2ccc(N(Cc3ccc(C(F)(F)F)cc3)Cc3ccc(C(F)(F)F)cc3)cc2o1
viability (sample A patient iPSC-derived NPCs; MTS; 10 µM, 24 h; relative to: vehicle): 124 ± 8.75%
